Measured values collected from several papers.
Each numbered part is a random draw from the data of one study; scales do not carry over between parts.

Series 1 — effect on: transporter uptake; mode: inhibitor
Target: Synaptic vesicular amine transporter (SLC18A2, Homo sapiens, UniProt Q05940)
Chain of UniProt Q05940 (whole entry, looked up): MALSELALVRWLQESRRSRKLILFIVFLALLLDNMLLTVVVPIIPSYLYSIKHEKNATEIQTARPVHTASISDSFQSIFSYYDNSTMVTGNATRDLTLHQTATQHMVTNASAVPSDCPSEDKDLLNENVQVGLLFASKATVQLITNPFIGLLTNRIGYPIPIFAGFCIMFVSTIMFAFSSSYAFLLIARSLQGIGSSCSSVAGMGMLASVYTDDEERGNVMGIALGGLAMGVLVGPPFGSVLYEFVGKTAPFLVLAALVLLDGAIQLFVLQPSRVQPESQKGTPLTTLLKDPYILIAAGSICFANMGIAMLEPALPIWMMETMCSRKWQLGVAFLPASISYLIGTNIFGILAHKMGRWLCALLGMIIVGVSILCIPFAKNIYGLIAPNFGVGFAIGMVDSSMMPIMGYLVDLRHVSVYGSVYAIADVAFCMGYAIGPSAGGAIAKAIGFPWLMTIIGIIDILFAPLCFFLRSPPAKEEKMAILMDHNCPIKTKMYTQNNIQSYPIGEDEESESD
| SMILES | IC50 [µM] |
| --- | --- |
| CN(C)CCCN1c2ccccc2CCc2ccc(Cl)cc21 | 8.2 |
| COc1c(OCCCN2CCOCC2)ccc2c1N=C(NC(=O)c1cnc(N)nc1)N1CCN=C21 | 11.1 |
| CC(C)c1nc(CN(C)C(=O)N[C@@H](CCN2CCOCC2)C(=O)N[C@H](CC[C@H](Cc2ccccc2)NC(=O)OCc2cncs2)Cc2ccccc2)cs1 | 5.1 |
| NC(=O)C(c1ccccc1)(c1ccccc1)[C@@H]1CCN(CCc2ccc3c(c2)CCO3)C1 | 0.7 |
| Cc1cc(Nc2ncc(Cl)c(Nc3ccccc3S(=O)(=O)C(C)C)n2)c(OC(C)C)cc1C1CCNCC1 | 1 |
| O=C(c1ccc(F)c(F)c1Nc1ccc(I)cc1F)N1CC(O)([C@@H]2CCCCN2)C1 | 3.53 |
| CCCSc1nc(N[C@@H]2C[C@H]2c2ccc(F)c(F)c2)c2nnn([C@@H]3C[C@H](OCCO)[C@@H](O)[C@H]3O)c2n1 | 1.27 |
| C[C@]12CC[C@H](O)CC1=CC[C@@H]1[C@@H]2CC[C@]2(C)C(c3cccnc3)=CC[C@@H]12 | 4.97 |
| N#Cc1ccc2[nH]cc(CCCCN3CCN(c4ccc5oc(C(N)=O)cc5c4)CC3)c2c1 | 0.069 |
| CC(CCc1ccc(O)cc1)NCCc1ccc(O)c(O)c1 (stereo not drawn) | 0.128 |

Series 2 — mode: agonist
Target: Beta-1 adrenergic receptor (ADRB1, Homo sapiens, UniProt P08588)
Chain of UniProt P08588 (whole entry, looked up): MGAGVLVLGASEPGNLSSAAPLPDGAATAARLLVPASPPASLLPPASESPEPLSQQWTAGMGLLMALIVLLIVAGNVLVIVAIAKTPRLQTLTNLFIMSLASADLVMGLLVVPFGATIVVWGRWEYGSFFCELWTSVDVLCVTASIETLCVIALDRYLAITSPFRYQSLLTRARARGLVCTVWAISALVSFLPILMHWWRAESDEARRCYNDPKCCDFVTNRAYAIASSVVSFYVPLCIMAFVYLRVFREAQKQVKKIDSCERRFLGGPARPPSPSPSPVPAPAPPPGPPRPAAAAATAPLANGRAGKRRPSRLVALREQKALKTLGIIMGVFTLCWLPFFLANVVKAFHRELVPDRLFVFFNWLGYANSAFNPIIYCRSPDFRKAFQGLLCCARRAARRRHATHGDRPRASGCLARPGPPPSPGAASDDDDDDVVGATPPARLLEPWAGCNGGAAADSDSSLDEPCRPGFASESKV
| SMILES | EC50 [µM] |
| --- | --- |
| COc1ccccc1N1CCC(N2C(=O)N3CCCC3(C)C2=O)C1 (stereo not drawn) | ≥ 100 |
| CCc1sc(-c2cc3ccc(O)cc3oc2=O)nc1-c1cc(C)ccc1C | ≥ 100 |
| CN(CC(O)COc1cccc(CNCCOc2ccccc2)c1)C1CCCCC1 (stereo not drawn) | ≥ 100 |
| COc1ccc([S+](=O)([O-])N2CCN(c3ccccc3OC)CC2)cc1C | ≥ 100 |
| Cc1ncc(-c2cc(C(=O)N3CCCCCCC3)c3cc(F)ccc3n2)cn1 | 3.16 |
| COc1ccc(-c2cc(=O)oc3cc(OCC(N)=O)ccc23)cc1 | ≥ 100 |
| Cc1nnc2n1CCN(c1nc(-c3ccccc3)c3ccccc3n1)C2 | ≥ 100 |
| COc1ccccc1NC(=O)c1sc2nc(C)c(C(=O)Nc3ccc(C)cc3C)c(-c3ccc(C)o3)c2c1N | ≥ 100 |
| CC(CCc1ccc(O)cc1)NCC(O)c1ccc(O)cc1 (stereo not drawn) | ≥ 100 |
| CN(c1ccccc1)c1cc(=O)c2ccnc(NCC3CCOCC3)c2o1 | ≥ 100 |

Series 3 — effect on: enzyme activity; mode: inhibitor; tested at: 0.5 µM; reference: control
Target: Aurora kinase B (AURKB, Homo sapiens, UniProt Q96GD4)
Chain of UniProt Q96GD4 (whole entry, looked up): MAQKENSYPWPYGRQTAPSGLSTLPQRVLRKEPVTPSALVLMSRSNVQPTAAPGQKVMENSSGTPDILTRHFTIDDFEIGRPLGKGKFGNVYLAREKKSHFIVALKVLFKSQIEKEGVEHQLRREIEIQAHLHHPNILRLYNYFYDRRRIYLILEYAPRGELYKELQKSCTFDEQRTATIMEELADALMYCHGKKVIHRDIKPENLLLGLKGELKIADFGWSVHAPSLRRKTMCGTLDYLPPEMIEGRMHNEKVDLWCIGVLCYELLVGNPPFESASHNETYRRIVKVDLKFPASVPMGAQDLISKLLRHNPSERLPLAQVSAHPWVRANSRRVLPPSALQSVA
| Compound | remaining activity [%] |
| --- | --- |
| CN(C)C[C@H]1CCn2c(c(C3=C(c4cn(C)c5ccccc45)C(=O)NC3=O)c3ccccc32)C1 | 96.3 |
| Cn1nc2c3c(cccc31)C(=O)c1ccccc1-2 | 83.5 |
| C[C@@H]1CCN(C(=O)CC#N)C[C@@H]1N(C)c1ncnc2[nH]ccc12 | 99.2 |
| N#Cc1c(NC(=O)c2cccc3ccccc23)sc2c1CCCC2 | 103 |
| Cc1nc2cc3nc(-c4cccs4)cnc3cc2n1C | 84.9 |
| O=C(NC(NC(=S)Nc1ccc(F)c([N+](=O)[O-])c1)C(Cl)(Cl)Cl)C(c1ccccc1)c1ccccc1 (stereo not drawn) | 95.3 |
| CCN(CC)C(=O)c1ccc(Nc2nc(OCC3CCCCC3)c3[nH]cnc3n2)cc1 | 30.1 |
| N#C/C(=C\c1ccc(O)c(O)c1)C(=O)NCc1ccccc1 | 94.4 |
| CCOc1nc(NC(=O)Cc2cc(OC)ccc2OC)cc(N)c1C#N | 105 |
| O=C1C(Cl)=C(N2C(=O)CCC2=O)C(=O)c2ccccc21 | 103 |
| Ic1cccc(CSc2nnc(-c3ccncc3)o2)c1 | 99 |
| Cc1cc2ncc(-c3ccccc3)nc2cc1C | 85.4 |
| COc1cc2ncnc(Nc3cccc(Cl)c3)c2cc1OC | 74.4 |
| c1ccc(-c2[nH]ncc2-c2ccnc3ccccc23)nc1 | 96 |
| CCN(CC)CCNC(=O)c1c(C)[nH]c(/C=C2\C(=O)Nc3ccc(Cl)cc32)c1C | 31.9 |
| c1ccc(-c2cnc(Nc3ccc(OCCN4CCCC4)cc3)s2)cc1 | 75.8 |
| O=C(Nc1cccc(Nc2nccc(Nc3cccc(C(F)(F)F)c3)n2)c1)C1CC1 | 72.8 |
| CN([C@@H](Cc1ccc(OS(=O)(=O)c2cccc3cnccc23)cc1)C(=O)N1CCN(c2ccccc2)CC1)S(=O)(=O)c1cccc2cnccc12 | 104 |
| Nc1cccc(-c2cc3c(Oc4cccc(O)c4)ncnc3[nH]2)c1 | 71.9 |
| COc1cc2ncnc(Nc3ccc(O)c(Br)c3)c2cc1OC | 63.5 |
| Cc1cn(-c2cc(NC(=O)c3ccc(C)c(Nc4nccc(-c5cccnc5)n4)c3)cc(C(F)(F)F)c2)cn1 | 104 |

Series 4 — effect on: ligand displacement; tested at: 10 µM
Target: D(1A) dopamine receptor (DRD1, Homo sapiens, UniProt P21728)
Chain of UniProt P21728 (whole entry, looked up): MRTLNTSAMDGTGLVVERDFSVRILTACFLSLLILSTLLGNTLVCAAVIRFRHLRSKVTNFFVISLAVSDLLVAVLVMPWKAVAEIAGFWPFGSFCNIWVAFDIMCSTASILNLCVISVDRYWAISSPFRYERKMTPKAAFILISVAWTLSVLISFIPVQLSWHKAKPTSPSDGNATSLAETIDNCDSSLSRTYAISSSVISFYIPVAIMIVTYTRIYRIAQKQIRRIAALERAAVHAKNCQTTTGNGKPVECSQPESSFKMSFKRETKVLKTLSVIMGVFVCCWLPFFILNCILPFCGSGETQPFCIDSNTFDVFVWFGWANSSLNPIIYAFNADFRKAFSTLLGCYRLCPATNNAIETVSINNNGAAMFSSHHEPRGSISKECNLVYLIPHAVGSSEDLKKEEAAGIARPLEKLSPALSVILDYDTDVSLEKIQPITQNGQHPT
| Structure (SMILES) | inhibition |
| --- | --- |
| CO[C@H]1CC[C@H](CNc2ccc(S(=O)(=O)NC(=O)c3ccc(N4CCN(CC5=C(c6ccc(Cl)cc6)CC(C)(C)CC5)CC4)cc3Oc3cnc4[nH]ccc4c3)cc2[N+](=O)[O-])CC1 | 28.2% |
| Cc1noc([C@H]2C[C@@H](c3ccc(C(F)(F)F)cc3)CN(C(=O)N3CCS(=O)(=O)C3)C2)n1 | 10.6% |
| COc1cc(N[C@@H]2CCCC[C@]2(O)C(F)(F)F)ccc1F | -13% |
| CN1CCN(c2ccnc(NCCc3ccccc3)n2)CC1 | 26.5% |
| CN1CCN(C(=O)C(C)(C)c2ccc(C(=O)Nc3cn4cc(-c5cc(C(C)(C)C)cc(C(C)(C)C)c5)ccc4n3)cc2)CC1 | 58.2% |
| CNC(=O)Nc1ccc2c(c1)CC[C@]21OC(=O)N(CC(=O)N(Cc2ccc(F)cc2)[C@@H](C)C(F)(F)F)C1=O | 9.97% |
| O=C1NC(c2ccccn2)Sc2ccccc21 (stereo not drawn) | 7.77% |
| CCc1ccccc1C(=O)Nc1n[nH]c2c(C)c(F)c(C3C(C#N)=C(C)N(C)C(C)=C3C#N)cc12 | 67.4% |
| O=C(NS(=O)(=O)c1ccc(NCC2CCOCC2)c([N+](=O)[O-])c1)c1ccc(N2CCN(Cc3ccc(C(F)(F)F)cc3-c3ccc(Cl)cc3)CC2)cc1Oc1cnc2[nH]ccc2c1 | 34.2% |
| COc1cccc(NC(=O)c2nc3scc(CN(C)Cc4ccccc4)c3c(=O)[nH]2)c1 | -11.2% |
| COc1ccc2cc(OCC3(C(=O)O)CN(C(=O)c4ccc(F)cc4)C3)ccc2c1 | -26.6% |
| CNC(=N)NCCC[C@H](NC(=O)[C@H](CC(C)C)NC(=O)NNC(=O)[C@H](Cc1ccccc1)NC(=O)[C@H](CO)NC(=O)[C@H](CC(N)=O)NC(=O)[C@@H](Cc1ccncc1)NC(=O)[C@H](N)Cc1ccc(O)cc1)C(=O)N[C@@H](Cc1ccccc1)C(N)=O | -7.58% |
| COc1cc(-c2cn(C3CCc4c(F)cccc4N(CC(F)(F)F)C3=O)nn2)ccc1-n1cnc(C)c1 (stereo not drawn) | 5.87% |
